Published values collected from several papers.
Every numbered part comes from another study and shows a few of its results, in no order. Changes are numbered by the printed parent chain.

Set 1 — technique: RNA Bind-n-Seq; form: RNA; matrix: in vitro; concentration: 365 nM; relative to: no-protein control; reading: higher = stronger binding; measurement: RBNS enrichment (R)
Target: RNA binding protein fox-1 homolog 2, RRM domain, GST-SBP tag (RBFOX2, Homo sapiens, UniProt O43251-10, residues 100-194)
Setting: natural RNA segment, single round, ends assumed
Target sequence (chain): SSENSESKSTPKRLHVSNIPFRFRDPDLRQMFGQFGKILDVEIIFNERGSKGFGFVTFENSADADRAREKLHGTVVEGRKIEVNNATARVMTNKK
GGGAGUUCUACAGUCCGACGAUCCACCGCAGCAGCAUCUUCAAGAAUAAAGCAAUAUAGUUUACUACAUUUUUUUUUAAAAUUGAAGGUCAGCCAUGCUUUCUGUAUUAUAUUGCAUAUGAAAUUGUUUACAAUGGAAUUCUCGGGUGCCAA: 0.399
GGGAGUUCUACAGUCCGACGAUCAGUUGGUUCUGAGGACAGAUGAUCCCCACAGACUGUGGGAGUGAUUGGCCAGGCCUUGUUUUUUCUUGUGUUUUGUUCUUUUUGUAGACUAGUGUGGUAACUAGGGAACAUGGAAUUCUCGGGUGCCAA: 1.09
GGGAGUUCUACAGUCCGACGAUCGGGAGUGGGGCGGGACCACUGUAGGACAGCGAAGGCAUAUAGUGGCGCAUAAAAGCCUGCUGGCUCGGGGCGCCUGCCUCCCUGCUCCUCUGUCCUCAAACAGUGAACCCUGGAAUUCUCGGGUGCCAA: 0.405
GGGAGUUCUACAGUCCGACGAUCUAUUGACGUUAUAACUGGGCUUCAAAGAGAUGUCUGUCUAUAUUGGGGCCUCUCAUUUUUUAUAAGCUCUUGAUAUACUUGAACAAUUUAAUAUGUACAGUUAGUUUGCUUGGAAUUCUCGGGUGCCAA: 0.437
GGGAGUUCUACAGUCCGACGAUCGCCUGAGUCUUUAAAAAAAAAUAAAUAAAAAUCCUGGAACUGCCAUAAAGUCUGAAGUCGUGACAGUCAGGAGGAAAUCCAGAAGUUAUCAGUGUCAGUAGGUGGUCCAGUGGAAUUCUCGGGUGCCAA: 0.643
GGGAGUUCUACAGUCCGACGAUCCAGUCUUAUAAACAAAGUAAAUAGGACAGAGACUAAGUUUUAGGGAGACAUCUUGGCCUCCUAGGCUAAGUUUACUAAACCACACUGAAGCUAUAGUACCUUCCAGAUGGUGGAAUUCUCGGGUGCCAA: 0.252
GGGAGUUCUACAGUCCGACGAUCUACAAAUCUUUAAGUCAUUUUAACUUUUUUUUCUGCCUUACGAUAUAAAAAUAUUUAUCUUAGAAUUUGAGAUGUUCAUAGCAUGUUUUAUUACAUUGAAGAAACUAAAAUGGAAUUCUCGGGUGCCAA: 8.4
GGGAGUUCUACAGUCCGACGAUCCGGAACAUCUGGCCCAGCAGGCCCAGACUGUAUCCAUCCAAGUUCCCGUUGUAUCCAGAGUUCUUAGAGCUUGUGUCUAAAGGGUAAUUCCCCAACCCUUCCUUAUGAGCUGGAAUUCUCGGGUGCCAA: 0.353
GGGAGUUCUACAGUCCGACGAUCGGGAAGAAGUUGUAUCUUAAGUGCCACCUUCAAGUUUCUUAGUGGUGCCUGGUGCAUUCCGAGGCUACAUCCAGGCUCAUGGAAGGAGUGUAGUAUUCAUUUAGCCAUGUUGGAAUUCUCGGGUGCCAA: 0.318
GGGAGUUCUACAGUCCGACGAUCGUGAAUGACAGGUACUGACAGCCCAACAUUAAGGUGCAAAUAGCCUGUUUGUCAUAUCAGAAGCCAUGGAAUAAUAAACCCAGGGGAAUCCAGAAACCACACUUAGUGGUUGGAAUUCUCGGGUGCCAA: 0.197
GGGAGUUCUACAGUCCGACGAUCUUCUUAAUUUAUAUUAUAUUUUAAACAACAUAGUAUAUAGCACAGGAAUUUGCAGAAGCCAUUUAAGUUUUUUGAGGUCAGCGCUGAGUUAGCAUUUAUUGUUUUGAUGAUGGAAUUCUCGGGUGCCAA: 0.732
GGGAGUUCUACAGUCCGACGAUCCAAUGUCCACCCCUGCCUCCCCUUCACUGGGGACUGGGGUUUUCGCCCCAUGCUGCAUCGUGUUGUAUUGGGAUGGGGCUGAGGAACAUGCUCCCUCCCUCCCUCCCAUAUGGAAUUCUCGGGUGCCAA: 0.466

Set 2 — technique: universal PBM; form: double-stranded DNA, one strand shown; matrix: in vitro; concentration: not given; reading: higher = stronger binding; measurement: E-score
Target: Sal-like protein 4, full length isoform B (SALL4, Homo sapiens, UniProt Q9UJQ4-2, residues 1-616)
Setting: 8-mer, flanks averaged, mean of replicates
Residues (chain): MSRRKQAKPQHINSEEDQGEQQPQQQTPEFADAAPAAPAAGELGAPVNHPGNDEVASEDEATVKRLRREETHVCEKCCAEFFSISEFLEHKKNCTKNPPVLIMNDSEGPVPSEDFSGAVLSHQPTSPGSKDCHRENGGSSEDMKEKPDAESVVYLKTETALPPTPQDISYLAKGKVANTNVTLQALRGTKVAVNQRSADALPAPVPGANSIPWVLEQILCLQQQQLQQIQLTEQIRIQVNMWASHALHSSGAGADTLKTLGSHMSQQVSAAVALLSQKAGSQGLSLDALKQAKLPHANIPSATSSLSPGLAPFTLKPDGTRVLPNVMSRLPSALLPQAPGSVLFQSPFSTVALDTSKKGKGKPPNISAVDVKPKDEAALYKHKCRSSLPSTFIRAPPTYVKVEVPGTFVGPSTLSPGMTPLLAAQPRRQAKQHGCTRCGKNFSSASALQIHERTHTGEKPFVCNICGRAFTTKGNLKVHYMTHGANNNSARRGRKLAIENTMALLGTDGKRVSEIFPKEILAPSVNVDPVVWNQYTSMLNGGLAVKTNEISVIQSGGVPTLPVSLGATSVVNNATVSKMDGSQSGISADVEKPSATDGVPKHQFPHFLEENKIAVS
AAAATGAG: 0.252
AGCGCCCG: -0.274
ACCAAGTC: -0.108
AAAGATTT: 0.274
ATTGGGCC: -0.117
ATCGACAC: -0.0398
ATCACCCA: -0.167
ATCAGGAT: 0.0917
CGCACTCA: -0.127
CCTCACCC: -0.194
CATGCGAC: 0.0511
AGCCTAGC: -0.239
TATGGCCA: 0.0949
AAGATGTG: 0.0707
AAGTAGGT: -0.0645
CGACGATA: 0.0481
ATCCAAAG: 0.0882
AACGGAAC: -0.191
ATGAAATG: 0.174
ATGAAGCA: 0.0954
CCGCTCAC: -0.371
TAAAAGAA: 0.23
GACCCAAC: -0.168
GAATGCAA: 0.189
AAGGGTAA: 0.0399

Set 3 — technique: protein binding microarray; form: double-stranded DNA, one strand shown; matrix: in vitro; concentration: not given; relative to: not given; reading: higher = stronger binding; measurement: E-score
Target: Histone acetyltransferase KAT6A, both winged helices, GST fusion (KAT6A, Homo sapiens, UniProt Q92794, residues 1-181)
Setting: 8-mer, flanks averaged, mean of 2 arrays, mostly near background
Residues (chain): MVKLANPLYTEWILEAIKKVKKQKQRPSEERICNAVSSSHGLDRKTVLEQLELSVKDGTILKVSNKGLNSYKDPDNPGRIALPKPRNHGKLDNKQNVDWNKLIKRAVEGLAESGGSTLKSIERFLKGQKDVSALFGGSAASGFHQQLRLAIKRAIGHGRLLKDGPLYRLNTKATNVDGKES
GATATCCA: -0.114
AGATCAGG: -0.153
CATCCTTA: -0.137
TCGGGAAA: 0.123
AATCACTA: -0.0165
AGACTACC: -0.0516
AGTCGGGG: 0.0507
CGAAATAA: 0.0358
AATGCATC: -0.196
AGGAATAA: -0.169
ACGGAAGC: 0.236
ATAGCGTC: 0.21
CACGACAG: -0.0251
CATTACAC: -0.0282
AGCTCTTG: -0.366
TCAGCTAA: -0.185
CTTGCATC: -0.0959
AGAGGGAC: -0.169

Set 4 — technique: DHFR PCA, deep sequencing; matrix: yeast; with: (+)-ABA 0.032 µM; relative to: wild-type fitted maximum; reading: higher = stronger binding; measurement: relative binding score
Target: ABI1, truncated, D143A, DHFR fusion (Arabidopsis thaliana)
Setting: methotrexate growth selection, single substitutions
Starting sequence: PYL1, truncated, DHFR fusion (Arabidopsis thaliana); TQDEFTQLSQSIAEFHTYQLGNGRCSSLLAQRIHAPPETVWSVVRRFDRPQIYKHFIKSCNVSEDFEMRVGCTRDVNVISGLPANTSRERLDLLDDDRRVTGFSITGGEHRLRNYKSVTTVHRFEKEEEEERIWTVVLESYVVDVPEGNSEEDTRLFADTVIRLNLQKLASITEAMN; partner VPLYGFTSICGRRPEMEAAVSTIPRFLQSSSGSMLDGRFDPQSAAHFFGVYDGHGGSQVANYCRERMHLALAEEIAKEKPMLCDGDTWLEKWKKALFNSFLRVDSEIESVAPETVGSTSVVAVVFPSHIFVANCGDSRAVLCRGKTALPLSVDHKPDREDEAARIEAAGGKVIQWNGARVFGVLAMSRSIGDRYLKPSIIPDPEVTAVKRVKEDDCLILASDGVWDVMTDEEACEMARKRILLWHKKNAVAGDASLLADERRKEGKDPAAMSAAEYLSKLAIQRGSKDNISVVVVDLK
H55L: 16.2%
I33Q: 1.8%
R111Y: 6.79%
D159C: -2.32%
L166I: 5.64%
P36Y: 3.84%
G148Y: -4.99%
P50K: -10.9%
G23E: 5.44%
T106M: 45.5%
P37Q: 6.24%
N85V: 63.5%
T73R: 3.04%
E4G: 6.8%
A170H: -10.5%
C72V: 31.1%

Set 5 — technique: protein-binding microarray; form: double-stranded DNA, one strand shown; matrix: in vitro; concentration: 940 nM top; setting: 60-bp whole probe; with: salmon DNA 0.4 mg/ml; relative to: random background probes; reading: higher = stronger binding; measurement: fitted relative affinity; all sequences stand within: GCCTAGCAC … GTCTTGATTCGCTTGACGCTGCTG
Target: Interferon regulatory factor 5, full length, phosphomimetic (IRF5, Homo sapiens, UniProt Q13568-2, residues 1-514, S451D/S453D/S456D/S462D)
TAACTTTCCAATTGTCCTTTCGTGCTA: 1.26 z-score
GACGGACTGGGGTTTCGGCACGTGCTA: 2.29 z-score
GACGGTATCCTTATTCTGACGTGCTAG: 0.366 z-score
TGAGATTTCGGGACTGGATTAGTGCTA: 0.329 z-score
TCAACTTTCCAAAACATACTGTGCTAG: 1.07 z-score
TTAGATTTCAGTTCAGATTAGTGCTAG: 0.816 z-score
TCACTTCTCGAGTGCCGGACTGTGCTA: 0.38 z-score
TTAGCTATCGACTTTCGGTTAGTGCTA: 2.97 z-score
TTAGGTCTCTTTCTCCTTTAGTGCTAG: 1.06 z-score
TCATTTCTCCTTTGTAAACTGTGCTAG: 1.18 z-score
TTAGGTTTCCTTATCCCTTAGTGCTAG: 2.19 z-score
TATAATATATATTCATATATGTGCTAG: 0.176 z-score
GAGGGTATCGGTCTCGGGACGTGCTAG: 6.18 z-score
TTGTTTTTTGGTTTCTGGTTGTGCTAG: 4.71 z-score
TATATTCTATTCCTTTAACAGTGCTAG: 1.69 z-score
TTAGATAGCAGACTGGATTAGTGCTAG: -0.749 z-score
CCATTCTTGGGACTCACCTGGTGCTAG: -0.153 z-score
GACGATTTCAGTCTCTAGACGTGCTAG: 0.557 z-score
TCACTTTTTTTAATTGAACTGTGCTAG: 0.767 z-score
TCAGCTTTCCAATTCTCACTGTGCTAG: 0.85 z-score
GACGAATTGGGGTATCGAGACGTGCTA: 1.11 z-score

Set 6 — target: CCNE2, cyclin fold, Cln2 fusion (human); technique: yeast growth competition, sequencing; matrix: yeast; setting: weak parent motif; relative to: not given; reading: higher = stronger binding; measurement: normalised enrichment score
Starting sequence: CDC42EP1 docking peptide (human); SLVVGKLSFDSSP; partner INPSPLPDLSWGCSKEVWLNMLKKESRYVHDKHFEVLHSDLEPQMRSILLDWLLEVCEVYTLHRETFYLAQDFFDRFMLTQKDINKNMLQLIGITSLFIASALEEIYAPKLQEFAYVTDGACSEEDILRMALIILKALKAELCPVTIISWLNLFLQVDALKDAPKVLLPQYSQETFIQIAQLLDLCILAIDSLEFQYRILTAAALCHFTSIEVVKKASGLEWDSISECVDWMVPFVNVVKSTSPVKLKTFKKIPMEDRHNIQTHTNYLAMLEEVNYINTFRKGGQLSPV
V3A: -0.22
L2A: 0.142
S12A: 0.157
G5A: -0.0785
V4A: 0.18
S11A: -0.234
L7A: -0.258

Some of these lines once more (set 5):
TGAGATTTCGGGACTGGATTAGTGCTA: 0.329 z-score
TCAACTTTCCAAAACATACTGTGCTAG: 1.07 z-score
TTAGATTTCAGTTCAGATTAGTGCTAG: 0.816 z-score
TCACTTCTCGAGTGCCGGACTGTGCTA: 0.38 z-score
TTAGCTATCGACTTTCGGTTAGTGCTA: 2.97 z-score
TTAGGTCTCTTTCTCCTTTAGTGCTAG: 1.06 z-score
TCATTTCTCCTTTGTAAACTGTGCTAG: 1.18 z-score
TTAGGTTTCCTTATCCCTTAGTGCTAG: 2.19 z-score
